{"data": "Results collected from several papers", "Aldo-keto reductase family 1 member A1": "Aldo-keto reductase family 1 member A1 (Bos taurus, UniProt Q3ZCJ2)", "EPHX1": "Epoxide hydrolase 1 (EPHX1, Homo sapiens, UniProt P07099)", "PLA2G5": "Phospholipase A2 group V (PLA2G5, Homo sapiens, UniProt P39877)", "CNGA1": "Cyclic nucleotide-gated channel alpha-1 (CNGA1, Bos taurus, UniProt Q00194)", "PARP3": "Protein mono-ADP-ribosyltransferase PARP3 (PARP3, Homo sapiens, UniProt Q9Y6F1)", "SLC51A with OSTβ": "Organic solute transporter subunit alpha, with OSTβ (SLC51A, Homo sapiens, UniProt Q86UW1)", "note": "Numbers after ± are the reported error.", "chain of UniProt Q3ZCJ2 (whole entry, looked up)": "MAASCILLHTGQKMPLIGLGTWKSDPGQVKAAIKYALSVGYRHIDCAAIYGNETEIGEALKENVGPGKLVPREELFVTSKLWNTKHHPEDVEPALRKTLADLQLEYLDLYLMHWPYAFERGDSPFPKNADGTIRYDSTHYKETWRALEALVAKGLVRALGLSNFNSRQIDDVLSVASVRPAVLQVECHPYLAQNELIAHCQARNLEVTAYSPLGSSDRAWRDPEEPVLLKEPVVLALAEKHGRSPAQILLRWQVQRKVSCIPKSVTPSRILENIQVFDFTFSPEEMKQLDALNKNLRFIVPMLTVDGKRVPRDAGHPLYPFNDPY", "chain of UniProt Q00194 (whole entry, looked up)": "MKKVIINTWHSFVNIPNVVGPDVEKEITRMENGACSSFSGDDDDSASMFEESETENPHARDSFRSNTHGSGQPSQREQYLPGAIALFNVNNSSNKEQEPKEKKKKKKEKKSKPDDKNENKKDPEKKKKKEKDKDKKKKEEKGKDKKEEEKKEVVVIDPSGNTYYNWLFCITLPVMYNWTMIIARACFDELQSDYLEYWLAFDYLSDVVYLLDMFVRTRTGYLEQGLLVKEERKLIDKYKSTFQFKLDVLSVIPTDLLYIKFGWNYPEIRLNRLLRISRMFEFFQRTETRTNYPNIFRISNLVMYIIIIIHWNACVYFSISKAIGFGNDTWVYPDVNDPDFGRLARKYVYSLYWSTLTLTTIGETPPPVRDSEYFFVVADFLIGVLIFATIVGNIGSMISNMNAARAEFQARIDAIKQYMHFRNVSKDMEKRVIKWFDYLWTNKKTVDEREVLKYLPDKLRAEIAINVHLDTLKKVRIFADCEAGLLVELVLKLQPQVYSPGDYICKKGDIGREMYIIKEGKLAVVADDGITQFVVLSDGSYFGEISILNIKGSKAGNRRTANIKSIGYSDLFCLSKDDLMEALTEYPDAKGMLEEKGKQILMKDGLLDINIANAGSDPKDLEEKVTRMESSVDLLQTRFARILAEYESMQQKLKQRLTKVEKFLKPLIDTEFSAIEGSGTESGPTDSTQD", "chain of UniProt Q86UW1 (whole entry, looked up)": "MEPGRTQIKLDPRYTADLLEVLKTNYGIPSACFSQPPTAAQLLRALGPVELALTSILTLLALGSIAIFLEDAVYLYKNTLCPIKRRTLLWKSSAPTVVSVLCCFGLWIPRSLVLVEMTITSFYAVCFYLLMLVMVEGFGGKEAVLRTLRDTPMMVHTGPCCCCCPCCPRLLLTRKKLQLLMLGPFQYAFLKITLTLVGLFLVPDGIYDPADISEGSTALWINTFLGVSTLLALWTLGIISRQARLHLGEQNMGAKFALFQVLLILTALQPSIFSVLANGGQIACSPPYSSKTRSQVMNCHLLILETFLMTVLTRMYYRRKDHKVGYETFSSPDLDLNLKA", "chain of UniProt P07099 (whole entry, looked up)": "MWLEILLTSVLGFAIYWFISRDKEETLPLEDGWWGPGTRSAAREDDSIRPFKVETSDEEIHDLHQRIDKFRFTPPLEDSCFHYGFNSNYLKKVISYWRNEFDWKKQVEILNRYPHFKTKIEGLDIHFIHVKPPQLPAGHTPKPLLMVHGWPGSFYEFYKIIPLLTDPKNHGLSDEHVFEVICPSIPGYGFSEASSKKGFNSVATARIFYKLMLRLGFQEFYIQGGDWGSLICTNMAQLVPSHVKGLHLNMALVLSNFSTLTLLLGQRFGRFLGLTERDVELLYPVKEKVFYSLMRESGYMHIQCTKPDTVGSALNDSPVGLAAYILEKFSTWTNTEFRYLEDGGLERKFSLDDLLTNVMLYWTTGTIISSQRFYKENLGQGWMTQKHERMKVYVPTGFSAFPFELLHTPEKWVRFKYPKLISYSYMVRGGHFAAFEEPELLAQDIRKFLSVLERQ", "chain of UniProt P03889 (whole entry, looked up)": "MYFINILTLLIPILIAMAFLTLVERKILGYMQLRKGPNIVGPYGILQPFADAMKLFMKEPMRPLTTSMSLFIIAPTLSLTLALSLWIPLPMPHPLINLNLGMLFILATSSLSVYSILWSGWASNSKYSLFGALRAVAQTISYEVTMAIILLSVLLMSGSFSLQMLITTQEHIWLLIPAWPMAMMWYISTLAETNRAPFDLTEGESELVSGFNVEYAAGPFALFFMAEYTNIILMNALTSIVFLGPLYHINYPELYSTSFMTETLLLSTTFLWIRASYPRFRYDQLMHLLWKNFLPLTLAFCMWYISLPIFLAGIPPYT", "chain of UniProt Q641Y2 (whole entry, looked up)": "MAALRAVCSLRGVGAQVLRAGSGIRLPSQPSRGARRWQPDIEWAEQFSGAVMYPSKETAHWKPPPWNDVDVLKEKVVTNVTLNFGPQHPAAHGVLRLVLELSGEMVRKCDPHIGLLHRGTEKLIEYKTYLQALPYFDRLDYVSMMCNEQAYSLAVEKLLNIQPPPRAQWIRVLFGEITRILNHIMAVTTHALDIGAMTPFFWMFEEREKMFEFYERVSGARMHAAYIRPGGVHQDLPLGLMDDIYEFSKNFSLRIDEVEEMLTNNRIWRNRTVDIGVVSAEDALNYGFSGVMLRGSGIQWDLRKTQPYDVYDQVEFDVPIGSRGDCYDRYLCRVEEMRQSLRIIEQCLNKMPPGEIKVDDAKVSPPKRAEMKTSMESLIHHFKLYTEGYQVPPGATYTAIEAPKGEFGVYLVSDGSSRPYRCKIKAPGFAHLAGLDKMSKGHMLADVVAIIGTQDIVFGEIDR", "chain of UniProt Q9Y6F1 (whole entry, looked up)": "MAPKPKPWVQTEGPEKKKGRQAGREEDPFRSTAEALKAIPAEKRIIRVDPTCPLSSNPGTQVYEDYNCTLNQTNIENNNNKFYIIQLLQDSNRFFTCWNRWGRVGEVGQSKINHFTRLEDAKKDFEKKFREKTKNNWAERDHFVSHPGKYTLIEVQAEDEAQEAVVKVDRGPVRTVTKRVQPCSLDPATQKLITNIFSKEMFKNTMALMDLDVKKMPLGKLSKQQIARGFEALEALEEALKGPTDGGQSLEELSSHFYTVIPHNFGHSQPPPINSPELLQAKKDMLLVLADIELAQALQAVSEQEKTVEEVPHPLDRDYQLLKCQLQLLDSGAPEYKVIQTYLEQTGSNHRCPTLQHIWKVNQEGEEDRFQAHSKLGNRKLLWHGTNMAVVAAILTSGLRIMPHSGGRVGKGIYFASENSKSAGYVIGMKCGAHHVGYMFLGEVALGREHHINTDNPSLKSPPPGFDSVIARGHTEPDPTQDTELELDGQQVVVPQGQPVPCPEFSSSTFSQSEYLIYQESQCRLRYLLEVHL", "chain of UniProt P39877 (whole entry, looked up)": "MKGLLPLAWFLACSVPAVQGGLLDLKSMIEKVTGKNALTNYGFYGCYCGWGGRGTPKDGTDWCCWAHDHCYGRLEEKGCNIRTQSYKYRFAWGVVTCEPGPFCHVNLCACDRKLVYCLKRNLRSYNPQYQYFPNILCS", "chain of UniProt P28221 (whole entry, looked up)": "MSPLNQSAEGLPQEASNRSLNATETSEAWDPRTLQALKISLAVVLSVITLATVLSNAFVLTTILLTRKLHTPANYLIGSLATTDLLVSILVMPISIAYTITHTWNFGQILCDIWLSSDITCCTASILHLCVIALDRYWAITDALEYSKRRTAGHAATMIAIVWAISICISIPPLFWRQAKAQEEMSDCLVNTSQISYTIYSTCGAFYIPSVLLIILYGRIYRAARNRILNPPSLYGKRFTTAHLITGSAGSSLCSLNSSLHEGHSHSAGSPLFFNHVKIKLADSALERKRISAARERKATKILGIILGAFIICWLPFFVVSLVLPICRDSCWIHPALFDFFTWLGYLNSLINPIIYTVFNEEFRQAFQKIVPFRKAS", "chain of UniProt Q00534 (whole entry, looked up)": "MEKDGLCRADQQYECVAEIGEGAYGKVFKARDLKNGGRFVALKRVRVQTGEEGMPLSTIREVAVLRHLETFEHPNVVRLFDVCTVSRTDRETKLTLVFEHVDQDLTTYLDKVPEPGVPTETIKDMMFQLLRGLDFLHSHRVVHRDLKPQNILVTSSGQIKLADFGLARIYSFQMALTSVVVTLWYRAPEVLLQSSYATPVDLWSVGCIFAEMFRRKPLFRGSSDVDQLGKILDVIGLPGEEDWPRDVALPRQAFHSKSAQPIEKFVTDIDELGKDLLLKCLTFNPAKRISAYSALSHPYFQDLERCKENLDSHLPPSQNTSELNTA", "chain of UniProt O43570 (whole entry, looked up)": "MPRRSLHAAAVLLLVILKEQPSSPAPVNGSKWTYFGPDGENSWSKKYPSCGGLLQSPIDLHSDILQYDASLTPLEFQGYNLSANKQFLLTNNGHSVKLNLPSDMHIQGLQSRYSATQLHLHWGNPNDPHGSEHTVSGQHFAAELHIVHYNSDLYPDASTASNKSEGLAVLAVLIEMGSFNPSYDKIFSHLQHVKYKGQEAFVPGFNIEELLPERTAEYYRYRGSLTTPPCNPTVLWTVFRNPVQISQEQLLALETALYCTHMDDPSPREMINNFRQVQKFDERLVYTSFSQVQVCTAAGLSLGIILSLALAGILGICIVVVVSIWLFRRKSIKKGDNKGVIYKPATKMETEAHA"}
{"Substance": "CC(=N/N=c1\\scc(-c2ccc(Br)cc2)n1-c1c(C)cccc1C)C12CC3CC(CC(C3)C1)C2", "target": "Aldo-keto reductase family 1 member A1", "assay": "enzyme activity, inhibitor, absorbance", "conditions": "1 mM", "inhibition": "11.6%"}
{"Substance": "CCCCCCCCCCCCNC(C)=O", "target": "EPHX1", "assay": "enzyme activity, inhibitor, fluorescence", "conditions": "100 µM", "inhibition": "33%"}
{"Substance": "C/C(=N/N=c1/scc(-c2ccc([N+](=O)[O-])cc2)n1-c1c(C)cccc1C)c1ccc2c(c1)NC(=O)CO2", "target": "Aldo-keto reductase family 1 member A1", "assay": "enzyme activity, inhibitor, absorbance", "conditions": "1 mM", "inhibition": "19.6%"}
{"Substance": "CCCCCCCCCCCCCCC(=O)C(=O)N[C@@H](CCCC)COCC(=O)OCC", "target": "PLA2G5", "assay": "enzyme activity, inhibitor, mixed micelle", "conditions": "0.091 mole fraction", "inhibition": "~80%"}
{"Substance": "O=S(=O)(Sc1ccccc1F)c1ccccc1F", "target": "tubulin", "assay": "colchicine binding", "conditions": "5 µM, 10 min, 37 °C, together with: 5.0 µM [3H]colchicine", "inhibition": "0%"}
{"Substance": "C/C(=N/N=c1/scc(-c2ccc([N+](=O)[O-])cc2)n1-c1c(C)cccc1C)c1ccc2c(c1)OCCO2", "target": "Aldo-keto reductase family 1 member A1", "assay": "enzyme activity, inhibitor, absorbance", "conditions": "1 mM", "inhibition": "21.7%"}
{"Substance": "O=CN/C=C/c1cc(O)ccc1O", "target": "CNGA1", "assay": "cGMP-activated current, inhibitor, inside-out patch clamp", "system": "Xenopus oocytes", "conditions": "25 µM, no ATP, together with: cGMP 2 mM", "inhibition": "no effect"}
{"Substance": "O=C1NCC(c2ccccc2)C(O)c2ccccc21 (racemic)", "target": "PARP3", "assay": "enzyme activity, inhibitor", "conditions": "10 µM", "inhibition": "91%"}
{"Substance": "O=[N+]([O-])c1ccc(Oc2ccc(S(=O)(=O)NC3CCCCC3)cc2)cc1", "target": "NADH dehydrogenase complex I, ubiquinone-binding site IQ (Rattus norvegicus, UniProt A6K8N6+P03889+Q641Y2)", "assay": "site IQ H2O2 production", "system": "rat mitochondria", "conditions": "concentration not given, together with: succinate", "inhibition": "≥ 50%"}
{"Substance": "C/C(=N/N=c1/scc(-c2ccc(Br)cc2)n1-c1ccccc1C)c1ccc2c(c1)NC(=O)CO2", "target": "Aldo-keto reductase family 1 member A1", "assay": "enzyme activity, inhibitor, absorbance", "conditions": "1 mM", "inhibition": "6.7%"}
{"Substance": "O=S(=O)(Sc1ccc(F)cc1)c1ccc(F)cc1", "target": "tubulin", "assay": "colchicine binding, [3H]colchicine binding", "conditions": "50 µM, 10 min, 37 °C, together with: [3H]colchicine 5.0 µM", "inhibition": "100 ± 0.3%"}
{"Substance": "N=C(N=C(N)N)NCCc1ccccc1", "target": "NADH dehydrogenase complex I (Rattus norvegicus, UniProt A6K8N6+P03889+Q641Y2)", "assay": "NADH:ubiquinone-1 oxidoreductase activity, inhibitor", "system": "solubilised rat mitochondria", "conditions": "200 µM, pH 7.4, 25 °C, active form, together with: NADH 200 µM and ubiquinone-1 100 µM", "inhibition": "~10%"}
{"Substance": "Cc1ccc(O)c(C=NNC(=S)Nc2ccc(C(C)C)cc2)c1", "target": "Aldo-keto reductase family 1 member A1", "assay": "inhibitor", "system": "Bos taurus (calf)", "conditions": "100 µM, together with: D-glucuronate substrate", "inhibition": "41.5%"}
{"Substance": "Fc1cccc(SSc2cccc(F)c2)c1", "target": "tubulin", "assay": "colchicine binding, [3H]colchicine binding", "conditions": "5 µM, 10 min, 37 °C, together with: [3H]colchicine 5.0 µM", "inhibition": "1.4 ± 4%"}
{"Substance": "COc1cccc(-n2c(-c3ccc(Cl)cc3)cs/c2=N/N=C(/C)c2ccc3c(c2)NC(=O)CO3)c1", "target": "Aldo-keto reductase family 1 member A1", "assay": "enzyme activity, inhibitor, absorbance", "conditions": "1 mM", "inhibition": "32.8%"}
{"Substance": "O=C(O)c1cc(N(Cc2ccccc2O)Cc2cc(O)ccc2O)ccc1O", "target": "CNGA1", "assay": "cGMP-activated current, inhibitor, inside-out patch clamp", "system": "Xenopus oocytes", "conditions": "10 µM, with ATP, together with: cGMP 2 mM", "inhibition": "no effect"}
{"Substance": "Cc1nc2sccn2c(=O)c1CCN1CCC(=C(c2ccccc2)c2ccc(F)cc2)CC1", "target": "5-hydroxytryptamine receptor 1D (HTR1D, Homo sapiens, UniProt P28221)", "assay": "agonist response, antagonist", "conditions": "10 µM, together with: reference agonist at EC90", "inhibition": "108%"}
{"Substance": "Clc1cccc(SSc2cccc(Cl)c2)c1", "target": "tubulin", "assay": "colchicine binding, [3H]colchicine binding", "conditions": "5 µM, 10 min, 37 °C, together with: [3H]colchicine 5.0 µM", "inhibition": "12 ± 2%"}
{"Substance": "Cc1ccc(O)c(C=NNC(=S)Nc2cccc(F)c2)c1", "target": "Aldo-keto reductase family 1 member A1", "assay": "inhibitor", "system": "Bos taurus (calf)", "conditions": "100 µM, together with: D-glucuronate substrate", "inhibition": "17.8%"}
{"Substance": "GMGPRGLLL", "target": "Qa-1 (mouse), soluble", "assay": "binding, SPR competition", "system": "peptide", "conditions": "20 µM, 25 °C, 2% DMSO, unit not given", "scale": "relative to: maximal blocking by 20 µM Qdm", "inhibition": 0.59}
{"Substance": "CC(C)(C)c1cnc(CSc2cnc(NC(=O)C3CCN(CC(=O)NCCOCCOCCOCCNc4cccc5c4C(=O)N(C4CCC(=O)NC4=O)C5=O)CC3)s2)o1 (stereo not shown)", "target": "Cyclin-dependent kinase 6 (CDK6, Homo sapiens, UniProt Q00534)", "assay": "probe labeling, KiNativ live-cell profiling", "system": "MOLT-4 CRBN knockout", "conditions": "0.25 µM", "inhibition": "6.6%"}
{"Substance": "CC(=O)S[C@@H]1CC2=CC(=O)CC[C@]2(C)[C@H]2CC[C@@]3(C)[C@@H](CC[C@@]34CCC(=O)O4)[C@H]12", "target": "SLC51A with OSTβ", "assay": "transport", "system": "Flp-In-293 cells overexpressing OSTα/β", "conditions": "100 µM, 30 s, together with: DHEAS 20 µM", "inhibition": "no inhibition"}
{"Substance": "CC(=N/N=c1\\scc(-c2ccc(Cl)cc2)n1Cc1ccccc1)C12CC3CC(CC(C3)C1)C2", "target": "Aldo-keto reductase family 1 member A1", "assay": "enzyme activity, inhibitor, absorbance", "conditions": "1 mM", "inhibition": "33.5%"}
{"Substance": "Cc1ccc(NC(=S)NN=Cc2cc(C)ccc2O)c(C)c1", "target": "Aldo-keto reductase family 1 member A1", "assay": "inhibitor", "system": "Bos taurus (calf)", "conditions": "100 µM, together with: D-glucuronate substrate", "inhibition": "24.7%"}
{"Substance": "Fc1ccc(SSc2ccc(F)cc2)cc1", "target": "tubulin", "assay": "colchicine binding, [3H]colchicine binding", "conditions": "5 µM, 10 min, 37 °C, together with: [3H]colchicine 5.0 µM", "inhibition": "2.6 ± 4%"}
{"Substance": "COc1ccc2c(c1)c(CC(=O)O)c(C)n2C(=O)c1ccc(Cl)cc1", "target": "SLC51A with OSTβ", "assay": "transport", "system": "Flp-In-293 cells overexpressing OSTα/β", "conditions": "100 µM, 30 s, together with: DHEAS 20 µM", "inhibition": "no inhibition"}
{"Substance": "O=[N+]([O-])c1ccc(-c2cs/c(=N/N=C\\c3c[nH]c4ccccc34)n2-c2ccc(F)cc2)cc1", "target": "Aldo-keto reductase family 1 member A1", "assay": "enzyme activity, inhibitor, absorbance", "conditions": "1 mM", "inhibition": "< 50%"}
{"Substance": "CCc1c(Cl)c(O)c(Cl)c(O)c1C(=O)O[C@H]1[C@H](O)[C@H](OC)[C@H](OC/C2=C\\C=C\\C[C@H](O)/C(C)=C/[C@H](CC)[C@@H](O[C@@H]3OC(C)(C)[C@@H](OC(=O)C(C)C)[C@H](O)[C@@H]3O)/C(C)=C/C(C)=C/C[C@@H]([C@@H](C)O)OC2=O)O[C@@H]1C", "target": "SLC51A with OSTβ", "assay": "taurocholate uptake, inhibitor", "system": "OSTα/β-expressing cells", "conditions": "100 µM, 30 s, preincubation and co-incubation, together with: taurocholate 20 µM", "inhibition": "> 70%"}
{"Substance": "O=S(=O)(Sc1cccc(Br)c1)c1cccc(Br)c1", "target": "tubulin", "assay": "colchicine binding", "conditions": "50 µM, 10 min, 37 °C, together with: [3H]colchicine 5.0 µM", "inhibition": "99 ± 1%"}
{"Substance": "C/C(=N/N=c1/scc(-c2ccc(Cl)cc2)n1-c1ccccc1)c1ccc2c(c1)NC(=O)CO2", "target": "Aldo-keto reductase family 1 member A1", "assay": "enzyme activity, inhibitor, absorbance", "conditions": "1 mM", "inhibition": "31.3%"}
{"Substance": "CCCCCCCC(=O)OC[C@H](CO)OC(=O)CCCCCCC", "target": "CNGA1", "assay": "cGMP-activated current, inside-out patch, Xenopus oocytes", "conditions": "0.5 µM, together with: cGMP 2 mM, saturating", "inhibition": "~42%"}
{"Substance": "O=c1c(-c2ccc(O)cc2)coc2cc(O)cc(O)c12", "target": "CNGA1", "assay": "ion current, inside-out patch clamp", "system": "Xenopus oocytes", "conditions": "100 µM, erbstatin 100 µM pretreatment, together with: cGMP 2 mM", "inhibition": "5.4 ± 1.7%"}
{"Substance": "CC[C@@H](C)[C@H](NC(=O)C(=O)CCCCc1ccc(OC)cc1)C(=O)NCC(=O)OC(C)(C)C", "target": "PLA2G5", "assay": "enzyme activity, mixed micelle", "conditions": "0.091 mole fraction", "inhibition": "48.2 ± 9.3%"}
{"Substance": "Cc1ccc(O)c(C=NNC(=S)NCc2ccccc2)c1", "target": "Aldo-keto reductase family 1 member A1", "assay": "inhibitor", "system": "Bos taurus (calf)", "conditions": "100 µM, together with: D-glucuronate substrate", "inhibition": "< 50%"}
{"Substance": "NS(=O)(=O)c1ccc(N2N=C(c3ccc(F)cc3O)CC2c2ccc(Br)cc2)cc1 (stereo not shown)", "target": "Carbonic anhydrase 12 (CA12, Homo sapiens, UniProt O43570)", "assay": "enzyme activity, inhibitor, absorbance", "conditions": "1 mM", "inhibition": "37%"}
{"Substance": "Fc1ccccc1SSc1ccccc1F", "target": "tubulin", "assay": "colchicine binding, [3H]colchicine binding", "conditions": "50 µM, 10 min, 37 °C, together with: [3H]colchicine 5.0 µM", "inhibition": "53 ± 5%"}
{"Substance": "Cc1ccc(O)c(C=NNC(=S)NCCc2ccccc2)c1", "target": "Aldo-keto reductase family 1 member A1", "assay": "inhibitor", "system": "Bos taurus (calf)", "conditions": "100 µM, together with: D-glucuronate substrate", "inhibition": "39.9%"}
{"Substance": "O=S(=O)(Sc1ccccc1Cl)c1ccccc1Cl", "target": "tubulin", "assay": "colchicine binding", "conditions": "5 µM, 10 min, 37 °C, together with: 5.0 µM [3H]colchicine", "inhibition": "12 ± 2%"}
{"Substance": "O=C1CCCc2ccccc2N1", "target": "PARP3", "assay": "enzyme activity, inhibitor", "conditions": "10 µM", "inhibition": "24%"}
{"Substance": "CCCCCCCCCCCCNC(=O)CCCC", "target": "EPHX1", "assay": "enzyme activity, inhibitor, fluorescence", "conditions": "100 µM", "inhibition": "-15%"}
{"note": "For quick reference, copied from above:"}
{"Substance": "O=S(=O)(Sc1ccccc1Cl)c1ccccc1Cl", "target": "tubulin", "assay": "colchicine binding", "conditions": "5 µM, 10 min, 37 °C, together with: 5.0 µM [3H]colchicine", "inhibition": "12 ± 2%"}
{"Substance": "C/C(=N/N=c1/scc(-c2ccc(Br)cc2)n1-c1ccccc1C)c1ccc2c(c1)NC(=O)CO2", "target": "Aldo-keto reductase family 1 member A1", "assay": "enzyme activity, inhibitor, absorbance", "conditions": "1 mM", "inhibition": "6.7%"}
{"Substance": "CC(=O)S[C@@H]1CC2=CC(=O)CC[C@]2(C)[C@H]2CC[C@@]3(C)[C@@H](CC[C@@]34CCC(=O)O4)[C@H]12", "target": "SLC51A with OSTβ", "assay": "transport", "system": "Flp-In-293 cells overexpressing OSTα/β", "conditions": "100 µM, 30 s, together with: DHEAS 20 µM", "inhibition": "no inhibition"}
{"Substance": "CCCCCCCCCCCCNC(=O)CCCC", "target": "EPHX1", "assay": "enzyme activity, inhibitor, fluorescence", "conditions": "100 µM", "inhibition": "-15%"}
{"Substance": "Cc1ccc(O)c(C=NNC(=S)NCCc2ccccc2)c1", "target": "Aldo-keto reductase family 1 member A1", "assay": "inhibitor", "system": "Bos taurus (calf)", "conditions": "100 µM, together with: D-glucuronate substrate", "inhibition": "39.9%"}
